Results from different studies.
Each numbered part is a random draw from the data of one study; scales do not carry over between parts. Changes are numbered by the printed parent chain.

Set 1 — method: RNA Bind-n-Seq; form: RNA; medium: in vitro; concentration: 1 µM; setting: whole 134-nt RNA, ends assumed; added: 150 mM KCl; baseline: input library; direction: higher = stronger binding; endpoint: log2 enrichment
Target: Ras GTPase-activating protein-binding protein 1, C-terminal RGG region (G3BP1, Homo sapiens, UniProt Q13283)
Sequence of UniProt Q13283 (whole entry, looked up): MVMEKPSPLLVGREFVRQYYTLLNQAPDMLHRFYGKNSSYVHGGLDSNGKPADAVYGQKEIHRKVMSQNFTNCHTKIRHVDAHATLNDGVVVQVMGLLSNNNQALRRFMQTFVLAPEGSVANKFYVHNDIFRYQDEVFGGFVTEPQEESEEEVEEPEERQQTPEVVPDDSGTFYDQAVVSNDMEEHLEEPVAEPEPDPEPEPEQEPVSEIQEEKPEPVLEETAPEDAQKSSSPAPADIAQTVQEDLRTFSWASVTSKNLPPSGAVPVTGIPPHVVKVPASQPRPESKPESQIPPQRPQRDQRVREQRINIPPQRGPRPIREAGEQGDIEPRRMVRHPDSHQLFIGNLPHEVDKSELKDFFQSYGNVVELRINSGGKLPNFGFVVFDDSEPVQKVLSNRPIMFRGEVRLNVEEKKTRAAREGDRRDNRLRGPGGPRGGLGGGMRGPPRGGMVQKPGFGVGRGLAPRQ
Constant ends, left off below: GGGAGUUCUACAGUCCGACGAUC … UGGAAUUCUCGGGUGUCAAGG
UCCUGUGCUACACAUCGUAUGUACCGAAUCGGGAAAAAAAGGGAAAGGGUUUUUUUGGGAAAGUAUUAUGUUACGCCGUUCGGAUCUGCA: -0.455
GCAGGAAGUAAAAACAAAUGGAAAUGCUUCGGAUAGUGGCAGGGGUAGGGGUUGCUAAGGAAAGGGUGGGAUGGGAGUGGGUAAAGAGUU: 0.586
GUCCUGUGCUACACAUCGUAUGUACCGAAUCGGGCCCCCGGGCCCCCGGGCCCCCGGGGAAAGUAUUAUGUUACGCCGUUCGGAUCUGCA: -2.11
UUCAAAGCGUUCGAAUGAGGAGACUGAUGACUAUGGGAAGGCGCAGGUAGCCAAAAGCAGCAGCAAGGAAUCCAGGUCAUCCAAGCUCCA: -2.35
GUAGGAAGUAAAAACAAAUGGAAAUGCUUCGGAUAGUGGCAGGGGUGGGGGUUGCUAAGGAAAGGGUGGGAUGGGAGUGGGUAAAGAGUU: 1.19
GGCACCCUUUGAAGGGGAGGAUGAAGAUGAACUCUUCCAAUCCAUCAUGGAACACAACGUAGCCUAUCCCAAGUCUAUGUCCAAGGAAGC: -0.641
AAGUCCUGUGCUACACAUCGUAUGUACCGAAUCAAACCCCCAAACCCAAAUUUAAAAAAGUAUUAUGUUACGCCGUUCGGAUCUGCACUU: -0.845
GUCCUGUGCUACACAUCGUAUGUACCGAAUCGGGAAAAAAAGGGUUUUUUUGGGUGGGAAAGUAUUAUGUUACGCCGUUCGGAUCUGCAC: 0.048
GUUGUAGACACUCCUGGGAUCCUGGACCACCCUCUGGAGGAUAGGAACACCAUCGAGAUGCAGGCCAUCACUGCCCUGGCCCACCUCCGU: 0.487

Set 2 — method: protein binding microarray; form: double-stranded DNA, one strand shown; medium: in vitro; concentration: not given; baseline: not given; direction: higher = stronger binding; endpoint: E-score
Target: Histone acetyltransferase KAT6A, winged helix 2, GST fusion (KAT6A, Homo sapiens, UniProt Q92794, residues 85-181)
Setting: 8-mer, flanks averaged, mean of 2 arrays, mostly near background
Residues (chain): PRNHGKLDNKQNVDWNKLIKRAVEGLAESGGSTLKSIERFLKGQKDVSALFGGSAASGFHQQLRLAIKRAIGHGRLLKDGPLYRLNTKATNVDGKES
GATGATTA: -0.0719
CCATACGA: -0.139
AACGGTTC: -0.113
AAATCCCG: 0.000195
TAGGACGA: -0.204
ACGGCGCT: 0.0127
CGTGACAC: 0.0578
GAACCGTA: -0.297
GGGATGAA: -0.00571
ATGACGGG: 0.021
CAGATCAA: 0.0364
ACGCCGTA: -0.128
GACGGTAC: 0.0334
CAAGTCTC: -0.2
ACAAAATA: -0.00645
CATTTGCC: -0.0307
AAGTATGT: -0.245
GTAGTTAA: 0.0137

Set 3 — method: protein-binding microarray; form: double-stranded DNA, one strand shown; medium: in vitro; concentration: 2200 nM top; setting: 60-bp whole probe; added: salmon DNA 0.4 mg/ml; baseline: random background probes; direction: higher = stronger binding; endpoint: fitted relative affinity; constant ends, left off below: GCCTAGCAC … GTCTTGATTCGCTTGACGCTGCTG
Target: Interferon regulatory factor 7, full length, phosphomimetic (IRF7, Homo sapiens, UniProt Q92985, residues 1-503, S471D/S472D/S475D/S476D/S477D/S483D/S484D/S487D)
Sequence of UniProt Q92985 (whole entry, unmodified, looked up): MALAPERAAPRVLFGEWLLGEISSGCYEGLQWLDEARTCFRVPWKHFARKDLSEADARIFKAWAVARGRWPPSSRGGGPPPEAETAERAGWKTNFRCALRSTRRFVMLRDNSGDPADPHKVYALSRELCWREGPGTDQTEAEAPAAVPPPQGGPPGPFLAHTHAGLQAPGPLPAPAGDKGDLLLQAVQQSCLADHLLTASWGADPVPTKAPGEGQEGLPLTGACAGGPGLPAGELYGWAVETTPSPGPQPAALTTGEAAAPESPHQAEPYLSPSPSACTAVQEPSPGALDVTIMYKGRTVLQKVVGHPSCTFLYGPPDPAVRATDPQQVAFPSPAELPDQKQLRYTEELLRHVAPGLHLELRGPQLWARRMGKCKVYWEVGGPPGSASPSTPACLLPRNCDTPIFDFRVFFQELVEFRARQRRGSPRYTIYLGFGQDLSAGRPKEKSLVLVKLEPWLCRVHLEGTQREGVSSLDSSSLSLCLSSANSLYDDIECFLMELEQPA
TTAGGTTTCCCTCTCCTTTAGTGCTAG: 2.24 z-score
TCTCGCTTCATCTCCCAGACTGTGCTA: 3.39 z-score
GACGATTTCAGACTGGAAACGTGCTAG: 0.306 z-score
CTGCCTGTCCATTCCTTCCAGTGCTAG: 1.66 z-score
AAGCTTCTGGTCTTCTGGACGTGCTAG: 0.518 z-score
TTAGATCGCAGTCTCGATTAGTGCTAG: 0.218 z-score
TTAGGACAGGACTTTCGGTTAGTGCTA: 5.08 z-score
GACGATATCGGGACTGGATACGTGCTA: 0.0344 z-score
GACGAACTGGGGAGTGGAGACGTGCTA: -0.397 z-score
TCAACTTTATGTAGGAAACTGTGCTAG: 0.0857 z-score
ACCCTTGAGTGGTCCAGAGTGTGCTAG: 0.0701 z-score
GACGATATCAGATTGGAGACGTGCTAG: 0.0564 z-score
TCAACTCTGAACCTTGGACTGTGCTAG: 0.163 z-score
GACGGTATCGAATATCGGGACGTGCTA: -0.052 z-score
GACGGTTACGGTTTCGGGACGTGCTAG: 3.57 z-score
TTAGATATCGGGACTGGAGTAGTGCTA: -0.466 z-score
TAAGAACTGAGACTGGATTAGTGCTAG: -0.784 z-score
GACGGACTGGGCTTCGGGACGTGCTAG: -1.12 z-score
GAGGCAAGGAGGGAGAACAGGTGCTAG: -1.59 z-score

Set 4 — method: DHFR PCA, deep sequencing; medium: yeast; added: (+)-ABA 200 µM; baseline: wild-type fitted maximum; direction: higher = stronger binding; endpoint: relative binding score
Target: ABI1, truncated, D143A, DHFR fusion (Arabidopsis thaliana)
Setting: methotrexate growth selection, single substitutions
Parent: PYL1, truncated, DHFR fusion (Arabidopsis thaliana); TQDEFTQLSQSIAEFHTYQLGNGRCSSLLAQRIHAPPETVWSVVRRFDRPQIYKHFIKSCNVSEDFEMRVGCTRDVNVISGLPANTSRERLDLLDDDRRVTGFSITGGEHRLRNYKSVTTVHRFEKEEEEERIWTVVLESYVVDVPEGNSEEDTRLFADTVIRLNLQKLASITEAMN
D144Q: 72.2%
K58M: 85.8%
G107D: 88.7%
E127V: 104%
D48G: 66.6%
Y18D: 67%
V44C: 84.7%
T173G: 78.1%
L91T: -3.37%
D48M: 7.53%
A13P: 57.7%
S140K: 6.17%
Q31A: 59%
E174C: 89.1%
Q51F: 84.4%

A few entries again (set 2):
AACGGTTC: -0.113
CATTTGCC: -0.0307
TAGGACGA: -0.204
ACGGCGCT: 0.0127
